Measured values gathered from unrelated publications.
Numbered parts are unrelated; each lists some results of a single study. Changes are numbered by the printed parent chain.

Series 1
Target: Interferon regulatory factor 3, full length, phosphomimetic (IRF3, Homo sapiens, UniProt Q14653, residues 1-427, S386D/S396D/S398D/S402D/T404D/S405D)
Method: protein-binding microarray
Molecule type: double-stranded DNA, one strand shown
Matrix: in vitro
Concentration: 2540 nM top
Notes: 60-bp whole probe
Added: salmon DNA 0.4 mg/ml
Relative to: random background probes
Reading: higher = stronger binding
Constant ends, left off below: GCCTAGCAC … GTCTTGATTCGCTTGACGCTGCTG
Target sequence (chain): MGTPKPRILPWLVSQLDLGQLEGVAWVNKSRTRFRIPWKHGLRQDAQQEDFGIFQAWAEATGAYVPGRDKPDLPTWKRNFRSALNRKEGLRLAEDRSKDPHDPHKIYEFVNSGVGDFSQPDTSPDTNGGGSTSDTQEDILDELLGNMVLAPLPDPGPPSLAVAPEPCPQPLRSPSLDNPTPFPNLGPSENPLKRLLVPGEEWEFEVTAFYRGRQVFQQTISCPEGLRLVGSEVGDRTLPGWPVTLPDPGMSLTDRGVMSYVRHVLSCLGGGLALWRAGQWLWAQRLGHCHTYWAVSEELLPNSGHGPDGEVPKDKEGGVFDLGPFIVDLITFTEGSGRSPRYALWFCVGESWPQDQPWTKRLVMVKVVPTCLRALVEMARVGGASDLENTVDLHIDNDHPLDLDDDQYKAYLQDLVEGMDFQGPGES
Strand	fitted relative affinity
TTAGGTATTGACTATCGGTTAGTGCTA	-0.291 z-score
TTAGGGCTGGACTATCGGTTAGTGCTA	-0.814 z-score
GACGGTATCGGTCTCGGGCCGTGCTAG	4.24 z-score
TTAGATTTCGGGGATCGATTAGTGCTA	0.512 z-score
TTAGGTGCCCTTTTCCTTTAGTGCTAG	4.88 z-score
ATATACCTGAATATCTTCAGGTGCTAG	0.465 z-score
AGGAGAGATTAAGTAACTTAGTGCTAG	-0.425 z-score
TCCCTATTATATATATCATAGTGCTAG	1.84 z-score
CACCCACTCTTTCCTCACCATGTGCTA	1.01 z-score
TTAGGTTTCCTACTGCTCTAGTGCTAG	4.9 z-score
TTAGGTTTCGGTATCGGTTAGTGCTAG	8.38 z-score
TTCGGACTGGACACTGGGTTAGTGCTA	-0.548 z-score
GGAGTTTTCAGTCCTGGGATGTGCTAG	1.05 z-score
TTAGGTTCCGGGTTCGGTTAGTGCTAG	1.99 z-score
TACGAACTGAGTATCGAGACGTGCTAG	0.155 z-score
GACGGACTGGGGTATCAGGACGTGCTA	-0.411 z-score
TCATGTTTGAGTCTTCTACTGTGCTAG	-0.274 z-score

Series 2
Target: CCNB2, cyclin fold, Cln2 fusion (human)
Method: yeast growth competition, sequencing
Matrix: yeast
Notes: weak parent motif
Relative to: not given
Reading: higher = stronger binding
Starting sequence: WEE1 docking peptide (human); HKTFRKLRLFDTP
Variant	normalised enrichment score
K6L	0.00213
P13Y	0.836
K2R	0.711
L9A	0.787
D11E	0.746
L9G	0.606
T3A	0.361
F4V	0.102
F4P	0.509
F10D	0.0871
L9C	0.678
D11Q	1.76
K2P	0.283
L9W	1.01
P13K	0.103
K6Q	0.477
P13Q	0.428
K2Q	0.831
L7S	0.193
H1N	0.716
K2L	0.524
L7W	1.13
L7R	0.844
D11P	0.902
K6M	0.24

Series 3
Target: CEBPB, bZIP domain (human)
Method: DHFR protein complementation
Matrix: yeast
Notes: single substitutions, most at no-binding floor
Relative to: wild-type JUN-FOS pair
Reading: higher = stronger binding
Starting sequence: JUN, bZIP domain (human); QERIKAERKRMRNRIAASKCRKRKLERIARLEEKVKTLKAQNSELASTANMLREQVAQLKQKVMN; partner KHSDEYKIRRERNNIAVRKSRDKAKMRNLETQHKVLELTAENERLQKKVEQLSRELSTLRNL
Variant	binding fitness
K39R	-1.28 natural log
L31T	-1.44 natural log
M51N	-1.31 natural log
S43K	-1.11 natural log
E54A	-1.26 natural log
Q41I	-1.29 natural log
I28M	-1.16 natural log
N42P	-1.37 natural log
E44K	-1.42 natural log
M51I	-1.33 natural log
I28N	-1.15 natural log
A49Q	-1.38 natural log
N42Q	-1.4 natural log
L38W	-1.44 natural log
S43E	-1.14 natural log
A29T	-1.34 natural log
T48W	-1.5 natural log
A57S	-1.27 natural log
T37M	-0.62 natural log
V56H	-1.2 natural log

Series 4
Target: Ras GTPase-activating protein-binding protein 1, C-terminal RGG region (G3BP1, Homo sapiens, UniProt Q13283)
UniProt Q13283, sequence (whole entry, looked up): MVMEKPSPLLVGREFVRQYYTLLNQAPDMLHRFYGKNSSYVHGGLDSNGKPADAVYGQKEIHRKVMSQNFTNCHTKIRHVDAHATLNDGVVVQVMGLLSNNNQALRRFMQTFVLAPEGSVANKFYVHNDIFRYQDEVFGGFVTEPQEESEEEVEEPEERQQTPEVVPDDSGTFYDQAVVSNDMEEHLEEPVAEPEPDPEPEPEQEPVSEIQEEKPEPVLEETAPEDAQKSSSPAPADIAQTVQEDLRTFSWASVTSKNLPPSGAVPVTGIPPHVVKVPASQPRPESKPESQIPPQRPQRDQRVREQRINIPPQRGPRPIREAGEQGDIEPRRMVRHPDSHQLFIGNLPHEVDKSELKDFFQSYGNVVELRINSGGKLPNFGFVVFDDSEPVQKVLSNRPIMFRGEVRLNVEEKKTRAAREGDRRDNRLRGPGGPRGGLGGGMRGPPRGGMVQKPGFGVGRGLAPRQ
Method: RNA Bind-n-Seq
Molecule type: RNA
Matrix: in vitro
Concentration: 1 µM
Notes: whole 134-nt RNA, ends assumed
Added: 150 mM KCl
Relative to: input library
Reading: higher = stronger binding
Constant ends, left off below: GGGAGUUCUACAGUCCGACGAUC … UGGAAUUCUCGGGUGUCAAGG
Strand	log2 enrichment
UGGGUGAAGAGGGACAGUUACCUUCCUGUGGGCAGUCAUAAUCUCAAGGCGGCCGCCAAGGCCAAGCUAGGCUAUGAUCCCGUGGAGCUA	-1.63
AAGUCCUGUGCUACACAUCGUAUGUACCGAAUCGGGGAAAAAGGGGAGGGGAGGGGAAAGUAUUAUGUUACGCCGUUCGGAUCUGCACUU	2.16
AAGUCCUGUGCUACACAUCGUAUGUACCGAAUCGGGGAAAAAGGGGUGGGGUGGGGAAAGUAUUAUGUUACGCCGUUCGGAUCUGCACUU	1.55
UGAUGAUAGUAGCAGAGAAGAUGAACAUACACAUACUAACAGUGUCACGAACUCCAGUAGUAUUGUGGACCUGCCCGUUCACCAACUCUC	0.215
CCUGUGCUACACAUCGUAUGUACCGAAUCGGUUUUUUUGGGGUUUUUUUGGUUUUUUUGGGAAAGUAUUAUGUUACGCCGUUCGGAUCUG	-1.37
UAACAUUAGAGGAGGAUCUGAUGGAUAUGGCAGUGGACGUGGAUUUGGGGAUGGCUAUAAUGGGUAUGGAGGAGGACCUGGAGGUGGCAA	-0.632
UGGCUUUCACCCCCAACCAGUGACCAAAGACUUGACCACUCAAAGUCCAGCUCCCCAGAACACUGCUCGACAUGGACACCGGUGUGAUUG	0.0231
AAGUCCUGUGCUACACAUCGUAUGUACCGAAUCGGGAAAGGGAAAAAGGGAAAGGGAAAGUAUUAUGUUACGCCGUUCGGAUCUGCACUU	0.948
AAGUCCUGUGCUACACAUCGUAUGUACCGAAUCGGGGCCCCGGGGCCCCGGCCCCGGAAAGUAUUAUGUUACGCCGUUCGGAUCUGCACU	-1.88
GUCCUGUGCUACACAUCGUAUGUACCGAAUCGGGCCCCCCGGCCCCCCGGCCCCCCGGGAAAGUAUUAUGUUACGCCGUUCGGAUCUGCA	-1.18
UAGGGUUCAGGAUAAGUUUGAGGUGCUGAAUUACACAAGCAUUCCUAUCUUUCUCCCGGAAGUCACCAUUGGAGCUCAUCAGACUGACCG	-1.06
AAGUCCUGUGCUACACAUCGUAUGUACCGAAUCGGGGAAAAGGAAAAGGGAAAAGGAAAGUAUUAUGUUACGCCGUUCGGAUCUGCACUU	-1.83
AGUCCUGUGCUACACAUCGUAUGUACCGAAUCGGUUUUGGGUUUUGGGGUUUUGGGGAAAGUAUUAUGUUACGCCGUUCGGAUCUGCACU	-0.864
UCAAGUCCUGUGCUACACAUCGUAUGUACCGAAUCGGAGGUUUGGAAAAAAAGGAAAGUAUUAUGUUACGCCGUUCGGAUCUGCACUUCC	-1.51

Series 5
Target: RING finger protein unkempt homolog, zinc fingers 1-6, GST-SBP tag (UNK, Homo sapiens, UniProt Q9C0B0, residues 30-357)
Method: RNA Bind-n-Seq
Molecule type: RNA
Matrix: in vitro
Concentration: not given
Notes: RNA with constant flanks, human-mouse chimeric sites, ends assumed
Relative to: input RNA pool
Reading: higher = stronger binding
Constant ends, left off below: GGGAGUUCUACAGUCCGACGAUC … CAACAGAGGAUUGAGCAUCA
Construct (chain): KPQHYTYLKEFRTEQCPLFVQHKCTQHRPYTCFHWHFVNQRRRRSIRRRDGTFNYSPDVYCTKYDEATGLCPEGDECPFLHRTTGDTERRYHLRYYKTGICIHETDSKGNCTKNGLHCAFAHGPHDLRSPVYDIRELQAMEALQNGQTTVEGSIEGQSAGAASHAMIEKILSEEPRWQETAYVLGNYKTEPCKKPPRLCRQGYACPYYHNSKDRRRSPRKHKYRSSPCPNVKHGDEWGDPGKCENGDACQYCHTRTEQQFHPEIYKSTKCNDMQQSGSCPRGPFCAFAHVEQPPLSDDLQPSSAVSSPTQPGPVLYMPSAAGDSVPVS
Strand	bound/input enrichment [ratio]
GGCCUGGACCUUCCUGGGGCUAGUACAAUAGCGGCAGGUGGAGGCUCGAGAGGAAAGUUUGUUAGUGGAGGCAGUGGUAGAGGCCGUCAUGUACGGUCCUUUACUCGAUAGAUGUGUUCU	0.377
AGUGUGCAGGAAUUCAUGACCUUCACGAGUCAACUGAUUGUGGAACGCUCAUCGAAAGGCAGCAGAGCUUCUGUCAAAGAACAAGAGUAUCUUUGCCAUGUCUACGUCCGGAGCGACAGU	0.058
CUGAAAAACACAGAUAUCAAAGUUGUUGAUUUUGGAAGUGCAACGUAUGAUGAUGAACAUCACAGUACUUUGGUGUCUACCCGGCACUACAGAGCUCCCGAGGUCAUUUUGGCUCUAGGU	0.357
CAGUCCCCGUGUCCCAGUGCAGGACGAUGUGAACAAAAACUCAAAGCGGACCCUCUAUUGUAGUUCUUUUUUUAAAUAAUGUGCUAUUAUUGUUUGUCUUUUUUUUUUUUUUUUUAAAGA	2.31
CUGAGGAUACCACUGAAGAGACCUUAAAAGAAUCAUUUUGACGGCUCGUUCGUGCAAGAAUAGUCACUGAUCGGGAAACUGGUUCUUUCCAAAGGGUUGGUUUUGUAGACUUUAAUAGUG	0.551
GAUAAGAAAAGCUUGUUGGAGACCCGCUUGCAUGUCACUGGCAGAGACCUGAGGUGUCAAAUAGCUGAAACUUUCGGAUUUCAAGAAAAUUACAUCAAGAUCGUAAUAAAUAAGAAGCAG	0.378
GUGUCCUGCUUUCAACUUAAAUCACUGAGGCAUCUCUACUGUUCUGUGAGCAUCAGGACUGUAGCGCUGUGUCACCACAUGAGAGUUGUUAAGCAGCCUUUCUGUGGAGGGUGGGAAUGA	0.0831
AGAAUCUUGGGACUGUUUUACUUAAUUGGUCAUUGGUAGCUUAACAAACAUGGAGAUGAGAUUAGAAAUCUUGACAUCAACAGGUAUUAAGCAGAAAAAACCAUGGCCACGUGUCUCCUG	0.112
UUUCUACUGCAGCAAACGAUGCUAAGAAUUAAGGAUCCUAAGAAGUCCCUGGAUUUUUAUACGAGGGUUCUUGGACUGACCCUCCUGCAGAAGCUUGAUUUUCCCAUUAUGAAGUUCUCG	0.5
CCCCACAACCAUUUGCAGGUCUGGAACUGCACUCUCUUUUUUAAAAAACAUGUAUACAUUUUAGGGCUGUAGAUUUAUUUUCCUGGUUUUGUUUUUCAUUGCUGACUUUGAGCACAAGAA	2.07
ACUCAGAGAUCCACCUCCCAAAGUGCUGGGAGUAAAGGUGUGGCCACCACACCUAACUUGAUGGAUAUUUUAUAAAGUUAAUAUGAAUCUUCCUGUUCGUCCAGGGAAGAAAGAUUUGUU	0.464

For quick reference, copied from above (series 4):
Strand	log2 enrichment
AAGUCCUGUGCUACACAUCGUAUGUACCGAAUCGGGGAAAAAGGGGAGGGGAGGGGAAAGUAUUAUGUUACGCCGUUCGGAUCUGCACUU	2.16
AAGUCCUGUGCUACACAUCGUAUGUACCGAAUCGGGGAAAAAGGGGUGGGGUGGGGAAAGUAUUAUGUUACGCCGUUCGGAUCUGCACUU	1.55
UGAUGAUAGUAGCAGAGAAGAUGAACAUACACAUACUAACAGUGUCACGAACUCCAGUAGUAUUGUGGACCUGCCCGUUCACCAACUCUC	0.215
CCUGUGCUACACAUCGUAUGUACCGAAUCGGUUUUUUUGGGGUUUUUUUGGUUUUUUUGGGAAAGUAUUAUGUUACGCCGUUCGGAUCUG	-1.37
UAACAUUAGAGGAGGAUCUGAUGGAUAUGGCAGUGGACGUGGAUUUGGGGAUGGCUAUAAUGGGUAUGGAGGAGGACCUGGAGGUGGCAA	-0.632
UGGCUUUCACCCCCAACCAGUGACCAAAGACUUGACCACUCAAAGUCCAGCUCCCCAGAACACUGCUCGACAUGGACACCGGUGUGAUUG	0.0231
AAGUCCUGUGCUACACAUCGUAUGUACCGAAUCGGGAAAGGGAAAAAGGGAAAGGGAAAGUAUUAUGUUACGCCGUUCGGAUCUGCACUU	0.948
AAGUCCUGUGCUACACAUCGUAUGUACCGAAUCGGGGCCCCGGGGCCCCGGCCCCGGAAAGUAUUAUGUUACGCCGUUCGGAUCUGCACU	-1.88
GUCCUGUGCUACACAUCGUAUGUACCGAAUCGGGCCCCCCGGCCCCCCGGCCCCCCGGGAAAGUAUUAUGUUACGCCGUUCGGAUCUGCA	-1.18
